Published values from different studies.
Compare with care: the assays were run in different laboratories. ± marks the error that the study gave.

| SMILES | test | test system | setting | Cmax |
| --- | --- | --- | --- | --- |
| COCCCCn1c(C(=O)N(CC(C)C)[C@@H]2CNC[C@H](C(=O)N3CCOCC3)C2)nc2ccccc21 | – | non-elderly human, plasma | oral, 80 mg once daily, day 7 | 754 ng/mL |
| O=C(c1ccc(OCCN2CCCCC2)cc1)c1c(-c2ccc(O[C@@H]3O[C@H](C(=O)O)[C@@H](O)[C@H](O)[C@H]3O)cc2)sc2cc(O)ccc12 | – | human, plasma | oral, 60 mg raloxifene, baseline, with water | 139 nM |
| CCc1nc(C(N)=O)c(Nc2ccc(N3CCC(N4CCN(C)CC4)CC3)c(OC)c2)nc1NC1CCOCC1 | – | human, normal hepatic function, plasma | oral, 10 mg, single dose, fasted, geometric LS mean | 7.64 ng/mL |
| COc1cc2ncnc(Nc3ccc(F)c(Cl)c3)c2cc1OCCCN1CCOCC1 | – | human, plasma | oral, 250 mg, mean | 294 ng/mL |
| CNCc1ccc(-c2[nH]c3cc(F)cc4c3c2CCNC4=O)cc1 | – | human patients, plasma | oral, 480 mg twice daily, day 1, arithmetic mean | 1150 ng/mL |
| C/C(=C\c1csc(C)n1)[C@@H]1C[C@@H]2O[C@]2(C)CCC[C@H](C)[C@H](O)[C@@H](C)C(=O)C(C)(C)[C@@H](O)CC(=O)N1 | LC-MS/MS | human patients, plasma | intravenous infusion, 70 mg, 3 h infusion | 301 ng/mL |
| CN1C(=O)[C@@H](NC(=O)c2nnc(Cc3ccccc3)[nH]2)COc2ccccc21 | – | human male, plasma | oral, 60 mg twice daily, day 14 | 845 ng/mL |
| NC(=S)NN=Cc1ncccc1N | – | human, serum | oral, 100 mg | 2400 nM |
| C#C[C@]1(CO)O[C@@H](n2cnc3c(N)nc(F)nc32)C[C@@H]1O | – | human, plasma | oral, 30 mg once weekly, week 3 | 637 nM |
| Cc1cn(-c2cc(NC(=O)c3ccc(C)c(Nc4nccc(-c5cccnc5)n4)c3)cc(C(F)(F)F)c2)cn1 | – | human, serum | oral, 400 mg twice daily, steady state | 1350 ng/mL |
| CN1CC[C@H](c2c(O)cc(O)c3c(=O)cc(-c4ccccc4Cl)oc23)[C@H](O)C1 | HPLC-MS/MS | human, plasma | intravenous, 35 then 35 mg/m^2, 30 min bolus then 4 h infusion, cycle 1, mean, together with: irinotecan 180 mg/m^2 | 2460 nM |
| CC(C)CN(C[C@@H](O)[C@H](Cc1ccccc1)NC(=O)O[C@H]1CCOC1)S(=O)(=O)c1ccc(N)cc1 | HPLC | human, plasma | oral, fosamprenavir 700 mg twice daily, together with: ritonavir 100 mg twice daily | 3960 ng/mL |
| N[C@]1(C(=O)O)[C@H]2[C@@H](C[C@@H]1F)[C@@H]2C(=O)O | – | human, fed, plasma | oral, 60 mg multiple, day 14 | 263 ng/mL |
| COC(=O)[C@H](c1ccccc1Cl)N1CCC(S)/C(=C\C(=O)O)C1 (stereo partly drawn) | – | human patients, CYP3A4 wt/wt, plasma | oral, 75 mg clopidogrel daily, day 7, median | 3.41 ng/mL |
| CN1CC[C@H](c2c(O)cc(O)c3c(=O)cc(-c4ccccc4Cl)oc23)[C@H](O)C1 | – | human advanced solid tumours, plasma | intravenous, 70 flavopiridol, together with: oxaliplatin 85 + leucovorin/5-FU | 2230 ± 510 nM |
| CCCCCCCCCCCCCCC[C@H](O)[C@@H](N)CO | – | human, phase I, plasma | intravenous, 120 mg/m^2, day 1, monotherapy | 3400 nM |
| CN(Cc1cnc2nc(N)nc(N)c2n1)c1ccc(C(=O)N[C@@H](CCC(=O)O)C(=O)O)cc1 | – | human, both sexes, plasma | oral, 15 mg, day 1, alone, arithmetic mean | 423 ng/mL |
| O=CC[C@@H](O)[C@H](O)[C@H](O)CO | HPLC-fluorescence | human patients, plasma | oral, 30 mg/kg/day, cycle 1 | 277000 nM |
| CCOc1cc([C@@H](CS(C)(=O)=O)N2C(=O)c3cccc(NC(C)=O)c3C2=O)ccc1O[C@@H]1O[C@H](C(=O)O)[C@@H](O)[C@H](O)[C@H]1O | – | healthy human controls, plasma | oral, 30 mg apremilast, matched to moderate impairment | 166 ng/mL |
| CC(C)(Sc1ccncc1-c1ccc(C#N)c2ccccc12)C(=O)O | – | human male, plasma | oral, 10 mg once daily, day 7 or 21, geometric mean | 14.6 ng/mL |
| COc1cc(Nc2ncc3c(n2)-c2ccc(Cl)cc2C(c2c(F)cccc2OC)=NC3)ccc1C(=O)O | – | human patients, plasma | oral, 40 mg twice daily, combination with other drug | 1310 ± 287 ng/mL |
| O=C(CCCCCCC(=O)Nc1ccccc1)NO | – | human patients, serum | oral, 600 mg, cycle -1 day 2, compound alone | 1620 nM |
| COc1cc(C(=O)O)ccc1NC(=O)[C@@H]1N[C@@H](CC(C)(C)C)[C@](C#N)(c2ccc(Cl)cc2F)[C@H]1c1cccc(Cl)c1F | – | human, plasma | oral, 200 mg, steady state, together with: venetoclax 400 mg | 3770 ng/mL |
| O=C(/C=C/c1cccc(S(=O)(=O)Nc2ccccc2)c1)NO | – | human mild liver dysfunction, plasma | intravenous, 400 mg/m^2, 30 min infusion, cycle 1 day -7 | 26600 ng/mL |
| CC#CC(=O)N1CC[C@@H](n2c(=O)n(-c3ccc(Oc4ccccc4)cc3)c3c(N)ncnc32)C1 | – | human, plasma | oral, 300 mg twice daily, cycle 1 day 28, fasting | 961 ng/mL |
| Cl.NCCc1c[nH]c(=S)n1[C@H]1COc2c(F)cc(F)cc2C1 | mean | human, male, plasma | oral, 200 mg, fasting | 229 ng/mL |
| O=C(O)CCCCCCCNC(=O)c1ccccc1O | – | human, normal renal function, plasma | concentration not given, day 10, geometric mean, together with: oral semaglutide once daily | 971 nM |

| SMILES | test | test system | setting | Cmax |
| --- | --- | --- | --- | --- |
| Cc1csc(-c2nnc(Nc3ccc(Oc4ncccc4-c4ccnc(N)n4)cc3)c3ccccc23)c1 | LC-MS/MS | human, plasma | oral, 40 mg, cycle 1 day 4, dose-expansion cohorts, mean, together with: G-CSF | 906 to 1670 ng/mL |
| C=C(C)[C@@H]1CC[C@]2(NCCN3CCS(=O)(=O)CC3)CC[C@]3(C)[C@H](CC[C@@H]4[C@@]5(C)CC=C(C6=CC[C@@](CF)(C(=O)O)CC6)C(C)(C)[C@@H]5CC[C@]43C)[C@@H]12 | – | human | oral, 100 mg once daily, day 14, multiple ascending dose | 1180 ng/mL |
| C=CCNC1=C2C[C@@H](C)C[C@H](OC)[C@H](O)[C@@H](C)/C=C(\C)[C@H](OC(N)=O)[C@@H](OC)/C=C\C=C(/C)C(=O)NC(=CC1=O)C2=O | – | human, plasma | intravenous infusion, 350 mg/m^2, day 1, 3 h infusion | 10900 nM |
| CN1CC(=O)N2[C@H](c3ccc4c(c3)OCO4)c3[nH]c4ccccc4c3C[C@@H]2C1=O | – | human | oral, 40 mg, free combination, US-sourced, fasted, geometric mean, together with: macitentan 10 mg | 506 ng/mL |
| CCCS(=O)(=O)N[C@H]1C[C@@H](N(C)c2ncnc3[nH]ccc23)C1 | – | human, normal hepatic function | oral, 200 mg, single dose, adjusted geometric mean | 1350 ng/mL |
| COc1ccnc(C[S+]([O-])c2nc3ccc(OC(F)F)cc3[nH]2)c1OC (stereo not drawn) | – | human, CYP2C19 normal metabolizers, plasma | oral, 40 mg/day, day 5 | 3190 ± 3860 ng/mL |
| CCC(C)n1ncn(-c2ccc(N3CCN(c4ccc(OCC5COC(Cn6cncn6)(c6ccc(Cl)cc6Cl)O5)cc4)CC3)cc2)c1=O (stereo not drawn) | – | human male, plasma | oral, 200 mg, day 3, geometric mean | 390 ng/mL |
| N#CCNC(=O)c1ccc(-c2ccnc(Nc3ccc(N4CCOCC4=O)cc3)n2)cc1 | – | human, plasma | oral, 100 mg momelotinib once daily, cycle 1 day 15, mean, together with: trametinib 1.0 mg once daily | 268 ng/mL |
| CS(=O)(=O)n1cc2c(n1)CN([C@H]1CO[C@H](c3cc(F)ccc3F)[C@@H](N)C1)C2 | – | healthy male human, plasma | oral, 10 mg once weekly, day 15, fasted, geometric mean | 195 nM |
| CC(C)(C(=O)NCC(F)(F)C(F)(F)F)C(=O)N[C@@H]1C(=O)Nc2ccccc2-c2ccccc21 | – | human, plasma | oral, 5 mg, day 1 | 129 ng/mL |
| CCOc1cc([C@@H](CS(C)(=O)=O)N2C(=O)c3cccc(NC(C)=O)c3C2=O)ccc1OC | – | healthy human, male, plasma | oral, 20 mg single dose, together with: ketoconazole multiple doses | 247 ng/mL |
| COc1ccc2nc([S@@+]([O-])Cc3ncc(C)c(OC)c3C)[nH]c2c1 | – | human, CYP2C19 normal metabolizers, plasma | oral, 40 mg/day, day 5 | 6270 ± 1940 ng/mL |
| COc1c(OCCCN2CCOCC2)ccc2c1N=C(NC(=O)c1cnc(N)nc1)N1CCN=C21 | – | human cancer patients, plasma | intravenous, 0.6 mg/kg weekly, cycle 1 day 15, geometric mean, together with: refametinib 30 mg twice daily | 194 ng/mL |
| CC(C)(Sc1ccncc1-c1ccc(C#N)c2ccccc12)C(=O)O | – | human, plasma | oral, 20 mg, together with: febuxostat 40 mg | 26.1 ng/mL |
| CCc1cc(/C(C)=N/OCc2ccc(C3CCCCC3)c(C(F)(F)F)c2)ccc1CN1CC(C(=O)O)C1 | – | healthy human, plasma | oral, 4 mg, geometric mean, together with: fluconazole steady state | 34 ng/mL |
| CS(=O)(=O)Nc1ccc(C(=O)O[C@@H](Cc2c(Cl)c[n+]([O-])cc2Cl)c2ccc(OC(F)F)c(OCC3CC3)c2)cc1OCC1CC1 | – | human, plasma | inhaled, 300 µg once daily, day 1, single-dose dry powder inhaler | 0.179 ng/mL |
| CNC(=O)c1c(C)oc2cc(Oc3ncnc4cc(OC)c(OC)cc34)ccc12 | – | human, plasma | oral, 5 mg, fed, high-fat meal | 114 ng/mL |
| C=CC(=O)Nc1cc(Nc2ncc(C(=O)OC(C)C)c(-c3cn(C)c4ccccc34)n2)c(OC)cc1N(C)CCN(C)C | – | human, fasted | oral, 40 mg single dose, arithmetic mean | 8.6 ng/mL |
| Cc1nc(-c2ccc(OCC(C)C)c(C#N)c2)sc1C(=O)O | – | human, plasma | oral, 80 mg, together with: verinurad 15 mg | 2070 ng/mL |
| CC(C)[C@H](C(=O)Nc1ccc(C(=O)NO)cc1)c1ccccc1 | – | human, plasma | oral, 30 to 80 mg, individual values | 540 to 3250 nM |
| Cc1[nH]c(/C=C2\C(=O)Nc3ccccc32)c(C)c1CCC(=O)O | – | human patients | oral, 200 mg/m^2 twice daily, after meal, dose 55 | 6460 ± 1910 ng/mL |
| CN1CC[C@H](c2c(O)cc(O)c3c(=O)cc(-c4ccccc4Cl)oc23)[C@H](O)C1 | – | human patients, phase I, plasma | intravenous, 70 mg/m^2, cycle 1, mean, together with: doxorubicin 60 | 2220 nM |
| Cc1ccc(NC(=O)c2ccc(CN3CCN(C)CC3)cc2)cc1Nc1nccc(-c2cncc(-c3oncc3C)c2)n1 | – | older healthy human adults, plasma | oral, 325 mg single dose, fed, mean | 7310 ng/mL |
| CCCCC1(CCCC)CN(c2ccccc2)c2cc(SC)c(OCC(=O)N[C@@H](C(=O)NCC(=O)O)c3ccccc3)cc2S(=O)(=O)C1 | LC-MS/MS | human, plasma | oral, 2.5 mg, single dose, before breakfast | 0.101 ng/mL |
| Nc1ccc(-c2nc([C@H]3CCc4cc(-c5cc(Cl)ccc5-n5cnnn5)cc(=O)n43)c(F)[nH]2)c(F)n1 | – | human, plasma | oral, 80 mg once daily, fed, day 1 | 553 ng/mL |
| Cc1ccc(C(=O)N2CCOC[C@H]2Cc2cccc(-n3nccn3)c2)c(-n2nccn2)c1 | – | healthy human, plasma | oral, 100 mg initial dose, day 8 | 693 ng/mL |
| O=C(c1cccnc1-c1ccncc1)N1CCC(O)(Cc2ccccc2)CC1 | – | healthy human, plasma | oral, 400 mg once daily, day 14, arithmetic mean | 2930 ng/mL |
